Results collected from several papers.
Numbered parts are unrelated; each lists some results of a single study.
UniProt Q9NQU5, sequence (whole entry, looked up): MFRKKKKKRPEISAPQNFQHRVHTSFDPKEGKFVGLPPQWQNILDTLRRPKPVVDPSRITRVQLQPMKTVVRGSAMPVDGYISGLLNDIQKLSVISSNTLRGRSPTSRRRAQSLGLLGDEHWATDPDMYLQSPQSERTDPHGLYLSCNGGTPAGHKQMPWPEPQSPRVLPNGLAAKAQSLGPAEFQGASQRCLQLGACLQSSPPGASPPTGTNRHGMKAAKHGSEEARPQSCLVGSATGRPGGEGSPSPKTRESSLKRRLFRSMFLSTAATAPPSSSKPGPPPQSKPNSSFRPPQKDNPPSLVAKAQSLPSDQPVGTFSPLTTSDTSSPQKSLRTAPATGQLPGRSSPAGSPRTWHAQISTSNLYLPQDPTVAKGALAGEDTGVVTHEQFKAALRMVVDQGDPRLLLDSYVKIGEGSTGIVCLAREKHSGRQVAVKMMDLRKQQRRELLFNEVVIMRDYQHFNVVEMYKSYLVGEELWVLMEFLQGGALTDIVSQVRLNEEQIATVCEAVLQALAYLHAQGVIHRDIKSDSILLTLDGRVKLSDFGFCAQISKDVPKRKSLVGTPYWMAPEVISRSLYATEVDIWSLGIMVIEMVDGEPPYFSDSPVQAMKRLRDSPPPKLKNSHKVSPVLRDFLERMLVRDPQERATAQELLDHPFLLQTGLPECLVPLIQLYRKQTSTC
UniProt Q96BR1, sequence (whole entry, looked up): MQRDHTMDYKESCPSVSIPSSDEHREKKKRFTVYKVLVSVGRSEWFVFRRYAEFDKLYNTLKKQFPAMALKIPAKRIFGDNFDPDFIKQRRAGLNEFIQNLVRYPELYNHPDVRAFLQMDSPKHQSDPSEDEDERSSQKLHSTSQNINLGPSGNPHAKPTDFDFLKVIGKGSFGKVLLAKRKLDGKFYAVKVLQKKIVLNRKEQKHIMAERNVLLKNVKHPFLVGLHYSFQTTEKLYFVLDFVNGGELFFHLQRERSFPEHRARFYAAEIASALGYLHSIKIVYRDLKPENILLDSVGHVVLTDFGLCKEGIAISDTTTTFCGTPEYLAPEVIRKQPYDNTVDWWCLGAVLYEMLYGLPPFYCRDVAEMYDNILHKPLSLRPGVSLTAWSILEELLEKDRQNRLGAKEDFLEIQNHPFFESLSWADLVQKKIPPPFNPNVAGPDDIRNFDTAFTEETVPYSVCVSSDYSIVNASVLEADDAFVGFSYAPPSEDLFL
UniProt Q13546, sequence (whole entry, looked up): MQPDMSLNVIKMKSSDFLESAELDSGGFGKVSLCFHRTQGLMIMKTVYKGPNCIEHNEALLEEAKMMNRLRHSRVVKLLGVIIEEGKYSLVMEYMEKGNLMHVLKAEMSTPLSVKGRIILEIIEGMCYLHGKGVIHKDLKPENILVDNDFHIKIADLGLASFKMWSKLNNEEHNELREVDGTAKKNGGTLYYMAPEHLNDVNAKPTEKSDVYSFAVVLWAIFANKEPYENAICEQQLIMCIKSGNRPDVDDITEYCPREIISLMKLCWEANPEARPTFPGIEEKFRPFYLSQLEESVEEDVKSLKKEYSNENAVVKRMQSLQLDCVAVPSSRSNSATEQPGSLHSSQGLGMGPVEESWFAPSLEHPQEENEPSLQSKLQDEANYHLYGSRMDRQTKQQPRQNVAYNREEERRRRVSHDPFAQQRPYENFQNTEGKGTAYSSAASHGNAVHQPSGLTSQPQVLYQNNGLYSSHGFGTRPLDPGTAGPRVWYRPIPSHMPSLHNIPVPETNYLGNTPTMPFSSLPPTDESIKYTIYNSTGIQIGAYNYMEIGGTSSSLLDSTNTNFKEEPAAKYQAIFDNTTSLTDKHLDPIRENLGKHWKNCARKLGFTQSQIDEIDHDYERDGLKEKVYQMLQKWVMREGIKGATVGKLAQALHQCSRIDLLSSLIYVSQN
UniProt Q9UF33, sequence (whole entry, looked up): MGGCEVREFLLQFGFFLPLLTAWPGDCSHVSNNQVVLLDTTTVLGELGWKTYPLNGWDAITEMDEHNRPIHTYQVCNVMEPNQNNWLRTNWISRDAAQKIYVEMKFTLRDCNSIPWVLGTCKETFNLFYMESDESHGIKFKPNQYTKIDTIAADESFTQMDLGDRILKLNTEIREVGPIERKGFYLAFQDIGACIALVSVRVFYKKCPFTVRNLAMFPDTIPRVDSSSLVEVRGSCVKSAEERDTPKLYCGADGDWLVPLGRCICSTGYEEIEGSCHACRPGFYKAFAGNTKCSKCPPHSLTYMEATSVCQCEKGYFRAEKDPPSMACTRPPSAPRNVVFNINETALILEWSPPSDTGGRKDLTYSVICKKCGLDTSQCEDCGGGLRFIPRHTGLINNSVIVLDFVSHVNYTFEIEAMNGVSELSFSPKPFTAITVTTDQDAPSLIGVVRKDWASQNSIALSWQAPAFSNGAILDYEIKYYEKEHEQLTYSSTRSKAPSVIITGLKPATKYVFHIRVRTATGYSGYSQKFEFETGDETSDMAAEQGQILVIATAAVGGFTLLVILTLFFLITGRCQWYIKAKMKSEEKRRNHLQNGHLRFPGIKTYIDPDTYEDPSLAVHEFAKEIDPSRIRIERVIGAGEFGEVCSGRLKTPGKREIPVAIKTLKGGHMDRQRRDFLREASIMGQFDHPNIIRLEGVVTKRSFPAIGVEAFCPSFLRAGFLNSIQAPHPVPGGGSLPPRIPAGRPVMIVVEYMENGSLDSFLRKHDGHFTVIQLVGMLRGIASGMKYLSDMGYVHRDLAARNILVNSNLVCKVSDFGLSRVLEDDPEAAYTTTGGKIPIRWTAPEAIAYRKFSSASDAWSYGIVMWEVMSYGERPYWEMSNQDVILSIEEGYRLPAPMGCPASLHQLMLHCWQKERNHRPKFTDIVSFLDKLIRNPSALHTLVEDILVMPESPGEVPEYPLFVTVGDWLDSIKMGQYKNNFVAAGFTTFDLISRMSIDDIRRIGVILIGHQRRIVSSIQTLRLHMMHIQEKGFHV
UniProt P35590, sequence (whole entry, looked up): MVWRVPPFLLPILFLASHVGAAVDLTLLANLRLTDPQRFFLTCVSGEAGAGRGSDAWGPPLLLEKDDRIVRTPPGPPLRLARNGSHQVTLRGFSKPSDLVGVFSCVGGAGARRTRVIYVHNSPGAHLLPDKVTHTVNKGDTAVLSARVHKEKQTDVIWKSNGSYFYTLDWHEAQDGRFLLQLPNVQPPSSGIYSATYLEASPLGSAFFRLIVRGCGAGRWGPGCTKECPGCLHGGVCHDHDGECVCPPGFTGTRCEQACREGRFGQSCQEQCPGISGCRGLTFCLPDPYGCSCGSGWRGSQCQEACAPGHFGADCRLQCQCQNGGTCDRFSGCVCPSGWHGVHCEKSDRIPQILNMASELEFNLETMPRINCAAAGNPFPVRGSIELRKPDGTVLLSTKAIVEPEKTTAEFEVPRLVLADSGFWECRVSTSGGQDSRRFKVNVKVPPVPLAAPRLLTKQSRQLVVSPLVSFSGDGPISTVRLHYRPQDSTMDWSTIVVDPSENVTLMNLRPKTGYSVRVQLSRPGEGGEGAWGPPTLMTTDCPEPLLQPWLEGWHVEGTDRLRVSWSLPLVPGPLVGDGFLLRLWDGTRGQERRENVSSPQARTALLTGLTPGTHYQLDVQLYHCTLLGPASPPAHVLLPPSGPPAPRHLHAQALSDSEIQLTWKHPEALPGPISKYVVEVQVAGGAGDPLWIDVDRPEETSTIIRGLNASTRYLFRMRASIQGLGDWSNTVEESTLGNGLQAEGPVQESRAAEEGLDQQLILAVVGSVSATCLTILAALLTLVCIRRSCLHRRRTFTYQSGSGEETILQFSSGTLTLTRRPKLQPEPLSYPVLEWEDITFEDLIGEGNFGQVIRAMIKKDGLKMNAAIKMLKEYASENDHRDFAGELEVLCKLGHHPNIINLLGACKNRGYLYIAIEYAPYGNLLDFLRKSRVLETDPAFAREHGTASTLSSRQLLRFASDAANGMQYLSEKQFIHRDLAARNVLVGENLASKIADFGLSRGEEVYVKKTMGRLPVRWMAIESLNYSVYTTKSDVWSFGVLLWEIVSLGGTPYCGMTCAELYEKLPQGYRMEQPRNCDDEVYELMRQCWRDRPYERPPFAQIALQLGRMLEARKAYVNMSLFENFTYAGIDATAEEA
UniProt P49674, sequence (whole entry, looked up): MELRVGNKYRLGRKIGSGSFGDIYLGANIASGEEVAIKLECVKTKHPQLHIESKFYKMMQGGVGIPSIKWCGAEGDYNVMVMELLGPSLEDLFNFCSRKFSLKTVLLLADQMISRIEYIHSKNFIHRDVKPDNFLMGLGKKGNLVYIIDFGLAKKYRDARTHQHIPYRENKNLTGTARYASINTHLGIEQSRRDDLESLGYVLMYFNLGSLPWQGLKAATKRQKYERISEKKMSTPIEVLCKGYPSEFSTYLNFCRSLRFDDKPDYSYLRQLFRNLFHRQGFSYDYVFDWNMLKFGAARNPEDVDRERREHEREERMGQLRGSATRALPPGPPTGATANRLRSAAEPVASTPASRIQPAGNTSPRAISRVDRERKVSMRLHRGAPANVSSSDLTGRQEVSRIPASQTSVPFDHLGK
UniProt Q99759, sequence (whole entry, looked up): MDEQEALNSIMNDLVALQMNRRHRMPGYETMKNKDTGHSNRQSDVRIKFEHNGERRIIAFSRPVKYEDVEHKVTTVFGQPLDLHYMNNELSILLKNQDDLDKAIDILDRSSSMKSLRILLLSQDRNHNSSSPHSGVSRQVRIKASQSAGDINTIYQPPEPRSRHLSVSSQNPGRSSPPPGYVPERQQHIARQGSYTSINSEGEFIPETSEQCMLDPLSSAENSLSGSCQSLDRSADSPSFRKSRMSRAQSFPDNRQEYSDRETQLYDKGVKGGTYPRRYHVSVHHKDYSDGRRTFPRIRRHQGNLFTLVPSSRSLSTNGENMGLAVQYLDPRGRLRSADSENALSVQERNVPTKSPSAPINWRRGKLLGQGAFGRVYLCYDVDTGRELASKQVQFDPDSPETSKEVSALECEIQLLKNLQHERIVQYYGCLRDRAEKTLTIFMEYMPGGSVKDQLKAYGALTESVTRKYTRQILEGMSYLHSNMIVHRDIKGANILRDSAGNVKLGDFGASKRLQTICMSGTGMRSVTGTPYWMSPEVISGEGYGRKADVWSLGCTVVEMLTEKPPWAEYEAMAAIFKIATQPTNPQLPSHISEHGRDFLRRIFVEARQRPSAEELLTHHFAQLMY

Sample 1 — technique: competition with immobilised ligand; concentration: 1 µM
Compound: Cc1nc(N2CC[C@@H](O)C2)ncc1-c1cc(C(F)(F)F)cc2[nH]ncc12
target | read-out | remaining binding
Tyrosine-protein kinase ABL1, phosphorylated (ABL1, Homo sapiens, UniProt P00519, E255K) | binding | 77%
Tyrosine-protein kinase receptor Tie-1 (TIE1, Homo sapiens, UniProt P35590) | cell-free assay | 91%
Receptor-type tyrosine-protein kinase FLT3 (FLT3, Homo sapiens, UniProt P36888, D835V/ITD) | binding | 54%
Serine/threonine-protein kinase PAK 6 (PAK6, Homo sapiens, UniProt Q9NQU5) | cell-free assay | 100%
Ephrin type-A receptor 6 (EPHA6, Homo sapiens, UniProt Q9UF33) | cell-free assay | 100%
Fibroblast growth factor receptor 3 (FGFR3, Homo sapiens, UniProt P22607, G697C) | cell-free assay | 90%
Serine/threonine-protein kinase PLK1 (PLK1, Homo sapiens, UniProt P53350) | binding | 64%
Mitogen-activated protein kinase 4 (MAPK4, Homo sapiens, UniProt P31152) | binding | 90%
Receptor-interacting serine/threonine-protein kinase 1 (RIPK1, Homo sapiens, UniProt Q13546) | binding | 100%
Tyrosine-protein kinase BTK (BTK, Homo sapiens, UniProt Q06187) | cell-free assay | 63%
Serine/threonine-protein kinase 35 (STK35, Homo sapiens, UniProt Q8TDR2) | binding | 100%
Phosphatidylinositol 3-kinase C2 domain-containing subunit gamma (PIK3C2G, Homo sapiens, UniProt O75747) | binding | 90%
Serine/threonine-protein kinase Sgk3 (SGK3, Homo sapiens, UniProt Q96BR1) | binding | 70%
Beta-adrenergic receptor kinase 1 (GRK2, Homo sapiens, UniProt P25098) | binding | 42%
Serine/threonine-protein kinase WNK2 (WNK2, Homo sapiens, UniProt Q9Y3S1) | binding | 41%
Mitogen-activated protein kinase kinase kinase 3 (MAP3K3, Homo sapiens, UniProt Q99759) | binding | 82%

Sample 2 — read-out: enzyme activity; mode: inhibitor; concentration: 0.5 µM; relative to: control
SMILES: CC#CC(=O)Nc1cc2c(Nc3ccc(F)c(Cl)c3)ncnc2cn1
target | remaining activity [%]
Vascular endothelial growth factor receptor 1 (FLT1, Homo sapiens, UniProt P17948) | 100
Casein kinase I isoform delta (CSNK1D, Homo sapiens, UniProt P48730) | 99.3
Cyclin-dependent kinase 2, with cyclin E (CDK2, Homo sapiens, UniProt P24941) | 98.1
Serine/threonine-protein kinase PAK 6 (PAK6, Homo sapiens, UniProt Q9NQU5) | 96.9
Tyrosine-protein kinase JAK1 (JAK1, Homo sapiens, UniProt P23458) | 104
Calcium/calmodulin-dependent protein kinase kinase 1 (CAMKK1, Homo sapiens, UniProt Q8N5S9) | 124
Serine/threonine-protein kinase SIK2 (SIK2, Homo sapiens, UniProt Q9H0K1) | 81.3
Ribosomal protein S6 kinase alpha-3 (RPS6KA3, Homo sapiens, UniProt P51812) | 97.5
SRSF protein kinase 1 (SRPK1, Homo sapiens, UniProt Q96SB4) | 94.8
Casein kinase I isoform epsilon (CSNK1E, Homo sapiens, UniProt P49674) | 93.6
Dual specificity protein kinase CLK1 (CLK1, Homo sapiens, UniProt P49759) | 82.5
Serine/threonine-protein kinase PAK 1 (PAK1, Homo sapiens, UniProt Q13153) | 94.5
Ephrin type-A receptor 2 (EPHA2, Homo sapiens, UniProt P29317) | 103
Tyrosine-protein kinase receptor TYRO3 (TYRO3, Homo sapiens, UniProt Q06418) | 100
Serine/threonine-protein kinase Sgk2 (SGK2, Homo sapiens, UniProt Q9HBY8) | 98.3
Dual specificity protein kinase CLK2 (CLK2, Homo sapiens, UniProt P49760) | 100
Protein kinase C zeta type (PRKCZ, Homo sapiens, UniProt Q05513) | 114
Protein kinase C theta type (PRKCQ, Homo sapiens, UniProt Q04759) | 89.3
Mitogen-activated protein kinase kinase kinase 20 (MAP3K20, Homo sapiens, UniProt Q9NYL2) | 85.8
Calcium/calmodulin-dependent protein kinase type 1 (CAMK1, Homo sapiens, UniProt Q14012) | 97.9
Insulin-like growth factor 1 receptor (IGF1R, Homo sapiens, UniProt P08069) | 100
Tyrosine-protein kinase Tec (TEC, Homo sapiens, UniProt P42680) | 52.1

Sample 3 — technique: protein-binding microarray; form: double-stranded DNA, one strand shown; matrix: in vitro; concentration: 250 nM; setting: 60-bp whole probe; together with: salmon DNA 0.4 mg/ml; relative to: random background probes; direction: higher = stronger binding; all sequences stand within: GCCTAGCAC … GTCTTGATTCGCTTGACGCTGCTG
Target: Interferon regulatory factor 5, full length, phosphomimetic (IRF5, Homo sapiens, UniProt Q13568-2, residues 1-514, K96S/S451D/S453D/S456D/S462D)
Sequence | log fluorescence [z-score]
TTAGAACTGGGGTTTCGGTTAGTGCTA | 6.89
TTAGATATCAGGACTGGATTAGTGCTA | 0.407
TTGGGTCTCGGACTGGGTTAGTGCTAG | -0.322
TTAGGTATCGGGTATCCGTTAGTGCTA | 4.26
GTCTGTTTGGGTCTTGTCTGGTGCTAG | 0.0414
GACGGTATCCTTTTCGTGACGTGCTAG | 0.562
TCATATGTGTATATATAACTGTGCTAG | 0.599
TTAGGTTTCGGGTTTCGGATAGTGCTA | 9.25

Sample 4 — technique: RNA Bind-n-Seq; form: RNA; matrix: in vitro; concentration: 20 nM; setting: 6-mer, flanks averaged, single round; together with: 150 mM KCl; relative to: input library; direction: higher = stronger binding
Target: TAR DNA-binding protein 43, full length, His tag (TARDBP, Homo sapiens, UniProt Q13148, residues 1-414)
Sequence | 6-mer enrichment (R)
CAUGCA | 0.716
CGCACC | 0.724
AUAUGU | 0.7
GCAAAU | 0.716
UCUGCG | 0.885
CUUCAA | 0.556
GUGUCC | 0.835
GGCGAA | 1.72

Excerpt of the above (sample 2):
target | remaining activity [%]
Serine/threonine-protein kinase SIK2 (SIK2, Homo sapiens, UniProt Q9H0K1) | 81.3
Ribosomal protein S6 kinase alpha-3 (RPS6KA3, Homo sapiens, UniProt P51812) | 97.5
SRSF protein kinase 1 (SRPK1, Homo sapiens, UniProt Q96SB4) | 94.8
Casein kinase I isoform epsilon (CSNK1E, Homo sapiens, UniProt P49674) | 93.6
